Experimental data collected from several papers.
Lines come from different studies, so protocols differ. ± gives the spread as reported. Converted amounts (≈) assume the structure as drawn.

`Cc1ccc2ccc3ccc(C)nc3c2n1.Cc1ccc2ccc3ccc(C)nc3c2n1.O.[Cl-].[Cl-].[Cl-].[Yb+3]` — result for “bacterial count decrease”: about 100% (Salmonella enterica serovar Typhi; 5 mg/mL, 4 to 48 h).
`O=C(CN1CCCC2=CC3CC(CN4CCCCC34)C21)Nc1ccc(Cl)cc1` (stereo not drawn) has an EC50 of 155 µM (vesicular stomatitis virus; pseudovirus entry; VSV G pseudovirus).
Under “HCV RNA reduction”, `CC(C)C[C@H](NC(=O)[C@H](CC(N)=O)NC(=O)[C@H](CCCCN)NC(=O)[C@H](CC(C)C)NC(=O)[C@H](Cc1ccccc1)NC(=O)CNC(=O)[C@H](CC(C)C)NC(=O)[C@@H](N)Cc1ccccc1)C(=O)N[C@@H](Cc1ccccc1)C(N)=O` is recorded as 90% (hepatitis C virus; Huh-7.5.1, JFH-1; concentration not given, added after infection, together with: 3 mM Ca2+; baseline: Ca2+ alone).
`O=C(CN1CCCC2=CC3CC(CN4CCCCC34)C21)Nc1ccc(Br)cc1` (stereo not drawn) gave an EC50 of 79.9 µM (vesicular stomatitis virus; pseudovirus entry; VSV G pseudovirus).
For `CSc1ccc(-c2ccc(Cn3ccnc3)cc2)s1`, the MIC50 was 1.1 µg/mL (≈ 3.84 µM) (Mycobacterium tuberculosis variant bovis BCG; microbial growth; BCG).
With `COc1ccc2nc(C)cc(OCC(=O)Nc3ccccc3OC)c2c1` the MIC was 32 µM (≈ 11.3 µg/mL) (Moraxella catarrhalis; microbial growth, broth dilution; 1502).
`CCC(=C(c1ccc(Cl)cc1)c1ccc(OCCN2CCCCC2)cc1)c1ccc(Cl)cc1` gave an EC50 of over 3.2 µg/mL (influenza A virus H1N1; cytopathic effect, visual CPE; MDCK).
`CCCCCC(=O)NCC(=O)N[C@@H](CC(C)C)C(=O)N[C@@H](CC(C)C)C(=O)N[C@@H](CCCCN)C(=O)N[C@@H](CCCNC(=N)N)C(=O)N[C@H](C(=O)N[C@@H](CCCCN)C(=O)N[C@H](C(=O)N[C@@H](CC(C)C)C(=O)N[C@@H](CC(C)C)C(=O)NCCCC[C@H](NC(=O)[C@H](CC(C)C)NC(=O)[C@H](CC(C)C)NC(=O)[C@@H](NC(=O)[C@H](CCCCN)NC(=O)[C@@H](NC(=O)[C@H](CCCNC(=N)N)NC(=O)[C@H](CCCCN)NC(=O)[C@H](CC(C)C)NC(=O)[C@H](CC(C)C)NC(=O)CNC(=O)CCCCC)[C@@H](C)CC)[C@@H](C)O)C(=O)NCCCC[C@H](NC(=O)[C@H](CCCCNC(=O)[C@H](CC(C)C)NC(=O)[C@H](CC(C)C)NC(=O)[C@@H](NC(=O)[C@H](CCCCN)NC(=O)[C@@H](NC(=O)[C@H](CCCNC(=N)N)NC(=O)[C@H](CCCCN)NC(=O)[C@H](CC(C)C)NC(=O)[C@H](CC(C)C)NC(=O)CNC(=O)CCCCC)[C@@H](C)CC)[C@@H](C)O)NC(=O)[C@H](CC(C)C)NC(=O)[C@H](CC(C)C)NC(=O)[C@@H](NC(=O)[C@H](CCCCN)NC(=O)[C@@H](NC(=O)[C@H](CCCNC(=N)N)NC(=O)[C@H](CCCCN)NC(=O)[C@H](CC(C)C)NC(=O)[C@H](CC(C)C)NC(=O)CNC(=O)CCCCC)[C@@H](C)CC)[C@@H](C)O)C(N)=O)[C@@H](C)O)[C@@H](C)CC` — result for “geometric mean MIC”: 32 µM (five bacterial species; bacterial growth).
For `Cc1cccc(-c2nc(Nc3ccncn3)c3c(C)csc3n2)n1`, the MIC was 0.5 µM (≈ 0.167 µg/mL) (Moraxella catarrhalis; microbial growth, broth dilution; 1502).
Under “geometric mean MIC”, `CCCC(=O)NCC(=O)N[C@@H](CC(C)C)C(=O)N[C@@H](CC(C)C)C(=O)N[C@@H](CCCCN)C(=O)N[C@@H](CCCNC(=N)N)C(=O)N[C@H](C(=O)N[C@@H](CCCCN)C(=O)N[C@H](C(=O)N[C@@H](CC(C)C)C(=O)N[C@@H](CC(C)C)C(=O)NCCCC[C@H](NC(=O)[C@H](CC(C)C)NC(=O)[C@H](CC(C)C)NC(=O)[C@@H](NC(=O)[C@H](CCCCN)NC(=O)[C@@H](NC(=O)[C@H](CCCNC(=N)N)NC(=O)[C@H](CCCCN)NC(=O)[C@H](CC(C)C)NC(=O)[C@H](CC(C)C)NC(=O)CNC(=O)CCC)[C@@H](C)CC)[C@@H](C)O)C(N)=O)[C@@H](C)O)[C@@H](C)CC` is recorded as 6.06 µM (five bacterial species; bacterial growth).
`Fc1ccc(F)c(-c2ccc(Cn3ccnc3)c(F)c2)c1` gave an MIC50 of 1 µg/mL (≈ 3.47 µM) (Mycobacterium tuberculosis variant bovis BCG; microbial growth; BCG).
`CCCC(=O)NCC(=O)N[C@@H](CC(C)C)C(=O)N[C@@H](CC(C)C)C(=O)N[C@@H](CCCCN)C(=O)N[C@@H](CCCNC(=N)N)C(=O)N[C@H](C(=O)N[C@@H](CCCCN)C(=O)N[C@H](C(=O)N[C@@H](CC(C)C)C(=O)N[C@@H](CC(C)C)C(=O)NCCCC[C@H](NC(=O)[C@H](CC(C)C)NC(=O)[C@H](CC(C)C)NC(=O)[C@@H](NC(=O)[C@H](CCCCN)NC(=O)[C@@H](NC(=O)[C@H](CCCNC(=N)N)NC(=O)[C@H](CCCCN)NC(=O)[C@H](CC(C)C)NC(=O)[C@H](CC(C)C)NC(=O)CNC(=O)CCC)[C@@H](C)CC)[C@@H](C)O)C(=O)NCCCC[C@H](NC(=O)[C@H](CCCCNC(=O)[C@H](CC(C)C)NC(=O)[C@H](CC(C)C)NC(=O)[C@@H](NC(=O)[C@H](CCCCN)NC(=O)[C@@H](NC(=O)[C@H](CCCNC(=N)N)NC(=O)[C@H](CCCCN)NC(=O)[C@H](CC(C)C)NC(=O)[C@H](CC(C)C)NC(=O)CNC(=O)CCC)[C@@H](C)CC)[C@@H](C)O)NC(=O)[C@H](CC(C)C)NC(=O)[C@H](CC(C)C)NC(=O)[C@@H](NC(=O)[C@H](CCCCN)NC(=O)[C@@H](NC(=O)[C@H](CCCNC(=N)N)NC(=O)[C@H](CCCCN)NC(=O)[C@H](CC(C)C)NC(=O)[C@H](CC(C)C)NC(=O)CNC(=O)CCC)[C@@H](C)CC)[C@@H](C)O)C(N)=O)[C@@H](C)O)[C@@H](C)CC`: “geometric mean MIC” 13.9 µM (five bacterial species; bacterial growth).
For `Cc1cc(C)cc(NC(=O)N2CCCC3=CC4CC(CN5CCCCC45)C32)c1` (stereo not drawn), the EC50 was 94.9 µM (vesicular stomatitis virus; pseudovirus entry; VSV G pseudovirus).
For `COc1ccc2nc(C)cc(OCC(=O)Nc3cc(C)cc(C)c3)c2c1`, the MIC was 32 µM (≈ 11.2 µg/mL) (Moraxella catarrhalis; microbial growth, broth dilution; 1502).
`Clc1ccc(CN2CCCC3=CC4CC(CN5CCCCC45)C32)c(Cl)c1` (stereo not drawn) has an EC50 of 16.2 µM (vesicular stomatitis virus; pseudovirus entry; VSV G pseudovirus).
Under “geometric mean MIC”, `CC[C@H](C)[C@H](NC(=O)[C@H](CCCNC(=N)N)NC(=O)[C@H](CCCCN)NC(=O)[C@H](CC(C)C)NC(=O)[C@H](CC(C)C)NC(=O)CN)C(=O)N[C@@H](CCCCN)C(=O)N[C@H](C(=O)N[C@@H](CC(C)C)C(=O)N[C@@H](CC(C)C)C(=O)NCCCC[C@H](NC(=O)[C@H](CC(C)C)NC(=O)[C@H](CC(C)C)NC(=O)[C@@H](NC(=O)[C@H](CCCCN)NC(=O)[C@@H](NC(=O)[C@H](CCCNC(=N)N)NC(=O)[C@H](CCCCN)NC(=O)[C@H](CC(C)C)NC(=O)[C@H](CC(C)C)NC(=O)CN)[C@@H](C)CC)[C@@H](C)O)C(=O)NCCCC[C@H](NC(=O)[C@H](CCCCNC(=O)[C@H](CC(C)C)NC(=O)[C@H](CC(C)C)NC(=O)[C@@H](NC(=O)[C@H](CCCCN)NC(=O)[C@@H](NC(=O)[C@H](CCCNC(=N)N)NC(=O)[C@H](CCCCN)NC(=O)[C@H](CC(C)C)NC(=O)[C@H](CC(C)C)NC(=O)CN)[C@@H](C)CC)[C@@H](C)O)NC(=O)[C@H](CC(C)C)NC(=O)[C@H](CC(C)C)NC(=O)[C@@H](NC(=O)[C@H](CCCCN)NC(=O)[C@@H](NC(=O)[C@H](CCCNC(=N)N)NC(=O)[C@H](CCCCN)NC(=O)[C@H](CC(C)C)NC(=O)[C@H](CC(C)C)NC(=O)CN)[C@@H](C)CC)[C@@H](C)O)C(N)=O)[C@@H](C)O` is recorded as 9.19 µM (five bacterial species; bacterial growth).
`CC(=C(c1ccc(Cl)cc1)c1ccc(OCCCN(C)C)cc1)c1ccc(Cl)cc1` gave an EC50 of 3.2 µg/mL (influenza A virus H1N1; cytopathic effect, visual CPE; MDCK).
`C1=C2CCCN(Cc3ccccc3)C2C2CC1C1CCCCN1C2` (stereo not drawn) gave an EC50 of 68.9 µM (vesicular stomatitis virus; pseudovirus entry; VSV G pseudovirus).
`Cc1cccc(-c2nc(Nc3ccncn3)c3sccc3n2)n1` has an MIC of 0.3 µM (≈ 0.0961 µg/mL) (Mycobacterium tuberculosis variant bovis BCG; microbial growth; BCG).
`CC[C@H](C)[C@H](NC(=O)[C@@H](N)CCCNC(=N)N)C(=O)N[C@@H](CC(N)=O)C(=O)N[C@@H](CC(N)=O)C(=O)N[C@H](C(=O)N1C[C@@H](n2cc(C3=CC=C[CH]3[Fe][CH]3C=CC=C3)nn2)C[C@H]1C(=O)N[C@@H](Cc1c[nH]c2ccccc12)C(=O)N[C@@H](CO)C(=O)N[C@@H](CCC(=O)O)C(=O)N[C@@H](C)C(=O)N[C@@H](CCSC)C(=O)N[C@@H](CCSC)C(=O)NCCC(=O)N[C@@H](CCC(N)=O)C(=O)NCCC(=O)N[C@@H](CS)C(N)=O)[C@@H](C)CC` (stereo partly drawn) — result for p24 release: “no effect” (VSV-G pseudotyped virus; concentration not given).
`O=C(NC12CC3CC(CC(C3)C1)C2)c1cc2cc(Cl)ccc2[nH]1` has an MIC of 0.8 µM (≈ 0.263 µg/mL) (Mycobacterium tuberculosis variant bovis BCG; microbial growth; BCG).
With `O=C(CNc1ccc(OC(F)(F)F)cc1)N1CCCC2=CC3CC(CN4CCCCC34)C21` (stereo not drawn) the EC50 was 47.6 µM (vesicular stomatitis virus; pseudovirus entry; VSV G pseudovirus).
`COc1ccc2cc(-c3ccc(Cn4ccnc4)cc3)ccc2c1` gave an MIC50 of 0.8 µg/mL (≈ 2.54 µM) (Mycobacterium tuberculosis variant bovis BCG; microbial growth; BCG).
The EC50 of `COc1ccc(CC(C)=C(c2ccc(Cl)cc2)c2ccc(OCCN3CCCC3)cc2)cc1` is reported as over 3.2 µg/mL (influenza A virus H1N1; cytopathic effect, visual CPE; MDCK).
The IC50 of `CC(C)C[C@H](NC(=O)[C@H](Cc1c[nH]cn1)NC(=O)[C@H](Cc1ccc(O)cc1)NC(=O)[C@H](CCCNC(=N)N)NC(=O)[C@H](Cc1ccc(O)cc1)NC(=O)[C@H](CCCCN)NC(=O)[C@H](CCCCN)NC(=O)c1ccc(CN/C(=N/C(=O)c2ccccc2)Nc2ccc(Br)cc2)cc1)C(=O)N[C@@H](CCCCN)C(=O)N1CCC[C@H]1C(=O)N[C@@H](Cc1ccccc1)C(=O)NCCCC[C@H](NC(=O)[C@H](Cc1ccccc1)NC(=O)[C@@H]1CCCN1C(=O)[C@H](CCCCN)NC(=O)[C@H](CC(C)C)NC(=O)[C@H](Cc1c[nH]cn1)NC(=O)[C@H](Cc1ccc(O)cc1)NC(=O)[C@H](CCCNC(=N)N)NC(=O)[C@H](Cc1ccc(O)cc1)NC(=O)[C@H](CCCCN)NC(=O)[C@H](CCCCN)NC(=O)c1ccc(CN/C(=N/C(=O)c2ccccc2)Nc2ccc(Br)cc2)cc1)C(N)=O` is reported as 6.25 µM (Leishmania amazonensis; parasite growth; 72 h, promastigote).
`Cc1ccc(NCC(=O)N2CCCC3=CC4CC(CN5CCCCC45)C32)cc1` (stereo not drawn) gave an EC50 of over 267 µM (vesicular stomatitis virus; pseudovirus entry; VSV G pseudovirus).
With `COc1ccc(CC(C)=C(c2ccc(Cl)cc2)c2ccc(OCCN3CCOCC3)cc2)cc1` the EC50 was over 2.2 µg/mL (influenza A virus H1N1; cytopathic effect, visual CPE; MDCK).
For `Cc1nc([C@H](NC(=O)c2ccc(-c3ccc(Cl)cc3)[nH]2)[C@H]2CCCCN2)sc1CO`, the IC50 was 6.4 ± 0.5 µM (vesicular stomatitis virus; viral entry; VSV-G pseudovirus).
`CC(=C(c1ccc(Cl)cc1)c1ccc(OCCN(C)C)cc1)c1ccc(Cl)cc1` gave an EC50 of over 0.56 µg/mL (influenza A virus H1N1; cytopathic effect, visual CPE; MDCK).
The MIC of `Cc1ccc2nc(C(F)(F)F)c(C(=O)NCc3cccc(Cl)c3)n2c1` is reported as over 10 µM (Mycobacterium tuberculosis variant bovis BCG; microbial growth; THP-1, BCG; intracellular).

Some of these lines once more:
Under “HCV RNA reduction”, `CC(C)C[C@H](NC(=O)[C@H](CC(N)=O)NC(=O)[C@H](CCCCN)NC(=O)[C@H](CC(C)C)NC(=O)[C@H](Cc1ccccc1)NC(=O)CNC(=O)[C@H](CC(C)C)NC(=O)[C@@H](N)Cc1ccccc1)C(=O)N[C@@H](Cc1ccccc1)C(N)=O` is recorded as 90% (hepatitis C virus; Huh-7.5.1, JFH-1; concentration not given, added after infection, together with: 3 mM Ca2+; baseline: Ca2+ alone).
The IC50 of `CC(C)C[C@H](NC(=O)[C@H](Cc1c[nH]cn1)NC(=O)[C@H](Cc1ccc(O)cc1)NC(=O)[C@H](CCCNC(=N)N)NC(=O)[C@H](Cc1ccc(O)cc1)NC(=O)[C@H](CCCCN)NC(=O)[C@H](CCCCN)NC(=O)c1ccc(CN/C(=N/C(=O)c2ccccc2)Nc2ccc(Br)cc2)cc1)C(=O)N[C@@H](CCCCN)C(=O)N1CCC[C@H]1C(=O)N[C@@H](Cc1ccccc1)C(=O)NCCCC[C@H](NC(=O)[C@H](Cc1ccccc1)NC(=O)[C@@H]1CCCN1C(=O)[C@H](CCCCN)NC(=O)[C@H](CC(C)C)NC(=O)[C@H](Cc1c[nH]cn1)NC(=O)[C@H](Cc1ccc(O)cc1)NC(=O)[C@H](CCCNC(=N)N)NC(=O)[C@H](Cc1ccc(O)cc1)NC(=O)[C@H](CCCCN)NC(=O)[C@H](CCCCN)NC(=O)c1ccc(CN/C(=N/C(=O)c2ccccc2)Nc2ccc(Br)cc2)cc1)C(N)=O` is reported as 6.25 µM (Leishmania amazonensis; parasite growth; 72 h, promastigote).
